# Measurements collected from several papers.
# Numbered parts are unrelated; each lists some results of a single study. Changes are numbered by the printed parent chain.

# Series 1
# Target: Histone acetyltransferase KAT6A, winged helix 2, GST fusion (KAT6A, Homo sapiens, UniProt Q92794, residues 85-181)
# Technique: protein binding microarray
# Form: double-stranded DNA, one strand shown
# Medium: in vitro
# Tested at: not given
# Notes: 8-mer, flanks averaged, mean of 2 arrays, mostly near background
# Baseline: not given
# Reading: higher = stronger binding
# Construct (chain): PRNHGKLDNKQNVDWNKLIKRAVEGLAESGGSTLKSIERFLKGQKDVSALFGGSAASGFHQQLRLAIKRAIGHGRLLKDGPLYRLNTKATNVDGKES
Oligonucleotide,E-score
AGCGGGCC,0.0598
ACTTCTAA,-0.064
TTGCCAAA,0.103
ACTAATAG,0.0219
AAGGATAT,-0.0939
TCAATTCA,0.00844
GTGGGAAA,0.0269
ACTGTGAG,-0.0667
CCCACGCA,0.254
AACTATGA,-0.125
ACCTAACG,-0.12
GTGTGCCA,0.0747
AAAACCAC,-0.1
ACTTTTAG,-0.0346
CGTAAAGA,-0.0707
CCATGAAG,0.00958
AACTTACC,-0.0107
TCATAACA,0.0326
AGTATAAG,-0.0399
GGCGTCAA,0.176
GTAGGCCA,0.0813
CTGGCAGA,0.0283
CCCTTTTC,0.0538
ACCGACAT,0.00566
TTCGACAA,0.0851

# Series 2
# Target: Phosphate system positive regulatory protein PHO4, full length, GST-tagged (PHO4, Saccharomyces cerevisiae, UniProt P07270, residues 1-312)
# Technique: competition protein-binding microarray
# Form: double-stranded DNA, one strand shown
# Medium: in vitro
# Tested at: 2 µM
# Notes: whole 60-bp probe, lowest competitor level
# Together with: Cbf1 competitor, 0.05 µM
# Reading: higher = stronger binding
# All sequences stand within: … GTCTTGATTCGCTTGACGCTGCTG
# Construct (chain): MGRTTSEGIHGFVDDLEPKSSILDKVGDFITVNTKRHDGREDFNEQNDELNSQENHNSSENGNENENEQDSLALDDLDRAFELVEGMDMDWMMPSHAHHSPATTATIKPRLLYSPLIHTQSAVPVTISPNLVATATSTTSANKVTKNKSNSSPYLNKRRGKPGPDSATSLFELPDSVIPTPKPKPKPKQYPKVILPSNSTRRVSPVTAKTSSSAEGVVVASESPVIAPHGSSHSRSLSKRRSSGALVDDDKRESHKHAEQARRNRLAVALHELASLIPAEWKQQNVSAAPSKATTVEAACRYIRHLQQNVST
Oligonucleotide,fluorescence intensity [a.u.]
GCACCATATTTTAGTTCCGTGATGGTCAAGAATTTT,3620
AAAGGCACCAAGATTCACCTGACGAAAGGCTCCCCC,3190
AATTTTTACGCTCCACACGTCATCGACATCTAAATA,5830
CGTTTTCAGAAGTGGAATCCTGATCCAATTTGCTCT,3460
CTAACGAAGGTTTGCGGTGTGGGTGACAAGCCAAGT,5180
GCTCATTCCACCTCACACCTGATTAACTAAAAGTTT,5600
GTTAAAACTCAATTATGCGTGGGACTTCTCAATTAG,8080
TCACCCAAAACATTGATCATGCCTGAAGGTCCTAGG,3640
AAATTACTAAGTTGAATTGTGGGTGACGCCGTATGA,4060
CGTCCTAGCGATTGATCGGTGGGTGCCATGAGGAAG,6110
CTTCTGTAAATTTGTCACAATACTTGACGCGCCCCG,3960
CTTCTGTAAATTTGTAGCGTGGGTGGACGCGCCCCG,7060
TCCTTGTCAACGCCGTGCGTGACGGTATGATTCACA,7550

# Series 3
# Target: ABI1, truncated, D143A, DHFR fusion (Arabidopsis thaliana)
# Technique: DHFR PCA, deep sequencing
# Medium: yeast
# Notes: methotrexate growth selection, single substitutions
# Together with: (+)-ABA 4.8 µM
# Baseline: wild-type fitted maximum
# Reading: higher = stronger binding
# Parent: PYL1, truncated, DHFR fusion (Arabidopsis thaliana); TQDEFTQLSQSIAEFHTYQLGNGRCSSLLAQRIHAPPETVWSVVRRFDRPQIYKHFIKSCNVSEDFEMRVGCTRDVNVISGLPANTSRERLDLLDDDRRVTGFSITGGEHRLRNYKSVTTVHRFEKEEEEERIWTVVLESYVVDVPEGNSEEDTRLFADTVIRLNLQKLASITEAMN
Change,relative binding score [%]
K116I,0.992
T6H,73.4
R32C,55.3
T106C,57.5
Y115V,2.85
T17P,7.02
V121R,4.48
V40I,8.82
R46M,46.9
R24P,-1.31
D159F,-3.1
E127K,82.8
T106G,-5.58
I52F,60.3
V143P,-6.54
H55S,83.4
K168I,19

# Series 4
# Target: CCNE2, cyclin fold, Cln2 fusion (human)
# Technique: yeast growth competition, sequencing
# Medium: yeast
# Notes: strong parent motif
# Baseline: not given
# Reading: higher = stronger binding
# Parent: RBL1 docking peptide (human); GSAKRRLFGEDPP; partner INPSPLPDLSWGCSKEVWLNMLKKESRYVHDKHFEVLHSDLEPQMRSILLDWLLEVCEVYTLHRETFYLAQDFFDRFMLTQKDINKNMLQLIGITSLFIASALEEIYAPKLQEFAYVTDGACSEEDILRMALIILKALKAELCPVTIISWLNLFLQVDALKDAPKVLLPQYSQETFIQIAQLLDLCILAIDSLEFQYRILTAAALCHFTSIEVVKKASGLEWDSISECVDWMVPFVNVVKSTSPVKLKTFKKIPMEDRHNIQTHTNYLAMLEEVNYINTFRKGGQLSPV
Change,normalised enrichment score
P13R,4.26
D11R,2.33
K4V,4.77
R5Y,0.687
F8C,0.856
P13Y,3.65
S2K,4.2
A3T,2.9
G9F,5.38
G1F,5.9
D11F,3.14
S2M,3.07
A3E,0.988
R5S,0.483

# Series 5
# Target: ATP-dependent RNA helicase DDX3X, helicase core (DDX3X, Homo sapiens, UniProt O00571, residues 132-607)
# UniProt O00571, sequence (132-607, looked up): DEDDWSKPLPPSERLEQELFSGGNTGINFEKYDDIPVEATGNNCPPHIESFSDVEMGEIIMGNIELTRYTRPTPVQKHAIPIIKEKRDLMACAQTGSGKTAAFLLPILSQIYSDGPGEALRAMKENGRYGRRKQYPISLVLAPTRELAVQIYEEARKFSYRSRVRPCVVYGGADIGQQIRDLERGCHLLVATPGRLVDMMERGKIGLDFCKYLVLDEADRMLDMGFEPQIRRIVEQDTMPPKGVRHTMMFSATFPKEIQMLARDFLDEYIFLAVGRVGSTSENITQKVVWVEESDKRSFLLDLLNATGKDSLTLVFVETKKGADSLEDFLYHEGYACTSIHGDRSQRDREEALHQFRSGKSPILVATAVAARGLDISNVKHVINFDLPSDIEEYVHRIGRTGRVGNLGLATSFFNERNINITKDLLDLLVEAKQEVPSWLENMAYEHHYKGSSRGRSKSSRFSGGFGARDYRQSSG
# Technique: RNA Bind-n-Seq
# Form: RNA
# Medium: in vitro
# Tested at: 90 pmol
# Notes: 4-mer, random 30-nt RNA, single round
# Together with: 3 µM DMDA-PatA, 2 mM ADP, 2 mM phosphate
# Baseline: input library
# Reading: higher = stronger binding
Oligonucleotide,4-mer enrichment
AGAA,1.18 fold
CGAC,0.838 fold
GCUG,0.813 fold
UGGC,0.881 fold
UAUA,1.06 fold
CUUU,0.826 fold
UCUC,0.867 fold
UAUU,0.993 fold
UACG,0.899 fold
GUGU,1.32 fold
UUCU,0.84 fold
CCGG,0.85 fold
UAGG,1.17 fold
AGCA,0.981 fold
UAAC,0.899 fold
AGAC,0.927 fold
CGCG,1.32 fold
AGUG,1.18 fold
CGUU,1.04 fold
GCUC,0.794 fold
UGGU,0.971 fold
CUUA,0.825 fold

# Series 6
# Target: RNA binding protein fox-1 homolog 2, RRM domain, GST-SBP tag (RBFOX2, Homo sapiens, UniProt O43251-10, residues 100-194)
# Technique: RNA Bind-n-Seq
# Form: RNA
# Medium: in vitro
# Tested at: 365 nM
# Notes: natural RNA segment, single round, ends assumed
# Baseline: no-protein control
# Reading: higher = stronger binding
# All sequences stand within: GGGAGUUCUACAGUCCGACGAUC … UGGAAUUCUCGGGUGCCAA
# Construct (chain): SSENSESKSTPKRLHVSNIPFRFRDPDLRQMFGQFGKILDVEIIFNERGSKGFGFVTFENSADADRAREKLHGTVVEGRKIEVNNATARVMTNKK
Oligonucleotide,RBNS enrichment (R)
ACCAUGCUGGCCAGGCUGGUCUCGAACUCCUGACCUCAGGUGAUCCCCCCCACCUCAGCCUCCCAAAGUGCUGGGAUUACAGGCGUGAGGCAUCACACCUGCCUCUGUUG,0.199
GGCCAGAACUUGAGUAUUUACUAACACGUUUUUCAAAAGAUGUCAGUGUUAUACCUAAAGCUAAAAAAAAGCAAGGGUUUGUCAUAGAGGGAACCUCUAAAUAAUUUCAG,0.314
UGCUUUUAGUGUUUGUACUGCUGCUGGUCAGGACAUUAAAAUAUUGAAGUGUUUUUAAAAAUUAAAGAAGAAGAAAAGUAAAAGAGCUUACCACUGGCGCCUAUGCGAUC,0.696
UGCUGCACCUCCCGGGGCUCCGGGGUGGGGCCAGGGAGGCCAGCCUGGGUCCGACUUCCCAAACACACUGGAGCUCGUUGAGCUGGCUGCGCAGCCUGCUUUGUCCUCCC,0.277
GGUAGGCUGUUUCACCGUCUUCUGGACUGUUUACUACAUGCUGGAAGUAUAUUUGAGCCAGAGGAAUGUGGCUUCCAAUCAAGUUUGUAGGAGUGGACCCUGCCACUGGC,1.11
UUAGCUGGGUCUUUCAUAGCCAAACUUGUAUAUUUAAAUUCUUUGUAAUAAUAAUAUCCAAAUCAUCAUCUUGUGUCAUGGUUUAAUUUUUCUAGGUAAGAAAAUAUGUU,0.487
AGUGCACUGGCCCUCUUUGAAAGGGCUUUACAGUGGGGGCACCAAGACCCCAAAGGGCCCAGGCCAGGAGACUGUUAAAGUGAAAAGGCAAUCUAUGACUCACCUUGCUC,0.322
GGGGAAAGGCCCUGCCAAUGUUUAACUUUUAAAAGCAUCUUAUCUAAAAGAAAGGCUAUCCAGUAGAGCCCAGUGCUCCCUUGUCCCUCUUUUAUGAUCAGGGUGAAAUG,0.662
UGGAAGAUGAGCUCAAGGGGAGGACAGGCCUUGGGAGGGCAGGCGUUUGCAUUAAUAUCAAGGCAAAAAGCAUUCAUAGAUACAUGCAUCUGAUUUGGUAUUGUGAUUUA,1.52
UUUUCAGAGUCUAUAAGCAUGCAGCCAUGGGUUGUGAGCUGACCUUGAGACAGGACGGGUCCCACACUCCCUGCCUCUGUCUCACUCAACACUCAGGCUAAGAAGGAGCG,9.09
UUCCAGGAAAGAGGCCAUCUCUUGGGGGUUUCAGCCAUCUUACCCAGUGUCUGGACUGCUAUAUUGGGUUGGGGGCUGGUUCUGGAACUCAGUCUGCGCCUCUAUAGGUU,0.389
ACAAAGAAAGUCCCUUGCUUGUCUGCACCAGGGAAGCAAGAGCUCCCAGUGACACCACCCCCUGCCUCUGGUUACUAUAAGAUGAGCCUUUAAGAUUCUUUCUAGACUUA,0.363

# For quick reference, copied from above (series 5):
Oligonucleotide,4-mer enrichment
UCUC,0.867 fold
UAUU,0.993 fold
UACG,0.899 fold
GUGU,1.32 fold
UUCU,0.84 fold
CCGG,0.85 fold
